Published values of several laboratories.
A part holds a random share of what one study measured. Positions count from the first letter of the parent shown.

Set 1
Target: Hepatocyte nuclear factor 3-alpha (Foxa1, Mus musculus, UniProt P35582, residues 1-468, full length assumed)
Technique: EMSA with sequencing
Form: double-stranded DNA, one strand shown
Medium: in vitro
Concentration: 10 and 20 nM
Setting: whole designed probe, mean of two concentrations, ends assumed
Reference: negative control set to 0
Direction: higher = stronger binding
All sequences stand within: GTGAGCGGTGCCCATTGATGGGGAAC … TTTCACTGGGATCGTGGGGAC
Target sequence (chain): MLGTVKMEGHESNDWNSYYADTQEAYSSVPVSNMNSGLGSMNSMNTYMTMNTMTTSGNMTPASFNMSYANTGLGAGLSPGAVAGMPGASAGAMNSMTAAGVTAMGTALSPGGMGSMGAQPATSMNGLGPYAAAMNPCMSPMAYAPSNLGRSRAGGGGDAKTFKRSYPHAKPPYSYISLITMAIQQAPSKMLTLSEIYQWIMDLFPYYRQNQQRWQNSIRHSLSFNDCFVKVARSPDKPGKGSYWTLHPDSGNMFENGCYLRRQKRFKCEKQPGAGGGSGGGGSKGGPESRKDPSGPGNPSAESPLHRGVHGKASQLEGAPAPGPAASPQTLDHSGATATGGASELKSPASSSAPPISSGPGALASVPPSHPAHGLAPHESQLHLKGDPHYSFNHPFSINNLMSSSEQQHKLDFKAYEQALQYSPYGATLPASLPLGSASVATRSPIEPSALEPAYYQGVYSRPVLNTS
Strand | normalised bound fraction [ratio]
AGCGCAGCCTAGAGGAGATAGGTGATGCCTGAAGCCATGAGAAGGGGTGTTATCTCTGCAGGAAGAAGAATTGCAACACTCCTCCCAGCTGAGCAATCTGTCTGGGCTGGGATGTGAGTGGTATCACACTCTGCACTCACTTCCTCCTTCAGTGGTCATTTGAGAGTTCACTGGGGCTGACCTACCCCATTGG | -0.0829
ACTTATAAATGGACACCCAATTTTCAGCTATAACAAAGAATGAAGTACTTATACATGGTAAAATATTGGTGAAATTTGAAAGCATTATGCTAAGTACACAAAAGGACAAATATTACTTGATTTTATTCACATGAAACATCAGGAATTGGCAAATCAACTGGGATATAAATCAGATTAGTGGTCATTAGGGCTC | 0.38
GGAATACCCCTTTGATTTTACTGGTGACGTATACCCACTAGTGTACTGAGACGGAAAAAAAAGTCTTTAGAACTCAGATAAATATACAGTTCATATTTACTATTTATGTATGTGTGATCTCATTATTAAATTACTCTATCATGTTTGTGGAATTAGCAGTTTCTCTTTGAATTTGGATGTTTCTAGTTATGTG | 0.109
CCATTTCTTTTATTTAAATTTTGATTTCTCCTTGACTTTTATCAGTTACTTCCTTTTGATCCTTTTCTCATATTCTTTTTTCTGTAGTCCTATGTTTACTTAGATCATTTAATATATTATAGTATTCAAGTATTTCAGCAACAGATTTTTTTATGTCAGAAGCATTGGAATCATTTTAAAAATCAAAACTTTA | 0.498
TTCTGGACGCTGTGAAGAAAACAAAACAATGGACTGTCTTTTAATCGTCCTTAAATAGCTCAGTAAAATTTAAACAATGCTTGCATTCTCTGTGTAATCTCAGTGACTGATGCCGAGGCCCCTAGGACTGCTTGGAGCTAATGGGATTAATAAGAATGCCTGAGGGTAACATCTATCACAAATTAATGTTTCC | 0.0601

Set 2
Target: Histone acetyltransferase KAT6A, winged helix 1, GST fusion (KAT6A, Homo sapiens, UniProt Q92794, residues 1-85)
Technique: protein binding microarray
Form: double-stranded DNA, one strand shown
Medium: in vitro
Concentration: not given
Setting: 8-mer, flanks averaged, mean of 2 arrays, mostly near background
Reference: not given
Direction: higher = stronger binding
Residues (chain): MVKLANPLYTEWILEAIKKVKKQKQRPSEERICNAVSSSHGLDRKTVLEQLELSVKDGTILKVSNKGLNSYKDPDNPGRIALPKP
Strand | E-score
AGTCGGCA | 0.148
GTGTAGTA | -0.204
GACCTTAC | 0.0148
GGGATTCA | -0.0466
CTTCTATA | -0.159
CTGCACTA | 0.00151
GACTATGC | -0.0721
ATAAAAAT | -0.189
CACGGGGG | 0.26
ACGCGAAG | 0.0688
TCTAGACA | -0.107
CAGTGAAA | 0.000185
CCGCACCA | 0.0399
AGACAGAC | 0.0206
TAAAAAAA | -0.111
CAGAATAC | -0.0745

Set 3
Target: ABI1, truncated, D143A, DHFR fusion (Arabidopsis thaliana)
Technique: DHFR PCA, deep sequencing
Medium: yeast
Setting: methotrexate growth selection, single substitutions
With: (+)-ABA 710 µM
Reference: wild-type fitted maximum
Direction: higher = stronger binding
Starting sequence: PYL1, truncated, DHFR fusion (Arabidopsis thaliana); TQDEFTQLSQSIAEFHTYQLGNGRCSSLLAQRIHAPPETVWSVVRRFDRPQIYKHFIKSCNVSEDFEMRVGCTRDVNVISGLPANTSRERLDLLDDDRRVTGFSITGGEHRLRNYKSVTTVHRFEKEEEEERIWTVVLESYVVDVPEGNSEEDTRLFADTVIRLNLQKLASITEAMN; partner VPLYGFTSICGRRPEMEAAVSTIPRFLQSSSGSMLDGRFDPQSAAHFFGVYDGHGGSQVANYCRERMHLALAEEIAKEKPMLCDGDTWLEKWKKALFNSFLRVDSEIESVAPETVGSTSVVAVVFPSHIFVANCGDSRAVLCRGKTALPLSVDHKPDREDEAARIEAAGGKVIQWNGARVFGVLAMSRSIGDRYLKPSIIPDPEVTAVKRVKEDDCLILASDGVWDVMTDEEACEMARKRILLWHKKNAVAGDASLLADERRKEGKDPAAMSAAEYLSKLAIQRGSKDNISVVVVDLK
Variant | relative binding score
G21T | 98.9%
R123Y | 98.8%
T73K | 96.5%
G102T | 61%
G21F | 89.7%
D75H | 100%
I33F | 45.7%
Q10D | 106%
Y141D | -12.1%
G108D | 50.1%
N22S | 105%
H16I | 19.1%
S87C | 78.6%
R32Q | 101%
V70H | 88.5%

Set 4
Target: Ras GTPase-activating protein-binding protein 1, C-terminal RGG region (G3BP1, Homo sapiens, UniProt Q13283)
UniProt Q13283, sequence (whole entry, looked up): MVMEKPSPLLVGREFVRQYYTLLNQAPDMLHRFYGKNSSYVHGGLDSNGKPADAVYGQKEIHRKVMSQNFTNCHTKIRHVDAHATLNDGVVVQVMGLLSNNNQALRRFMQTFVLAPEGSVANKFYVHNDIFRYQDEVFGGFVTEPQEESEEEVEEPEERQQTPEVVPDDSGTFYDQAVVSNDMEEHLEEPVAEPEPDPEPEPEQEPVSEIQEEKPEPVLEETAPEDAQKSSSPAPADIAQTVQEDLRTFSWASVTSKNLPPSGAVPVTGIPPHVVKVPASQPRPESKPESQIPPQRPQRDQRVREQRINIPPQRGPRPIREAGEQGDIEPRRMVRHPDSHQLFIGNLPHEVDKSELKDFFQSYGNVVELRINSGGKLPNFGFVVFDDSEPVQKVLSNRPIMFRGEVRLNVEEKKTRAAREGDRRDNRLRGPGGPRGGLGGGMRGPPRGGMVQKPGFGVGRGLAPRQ
Technique: RNA Bind-n-Seq
Form: RNA
Medium: in vitro
Concentration: 1 µM
Setting: whole 134-nt RNA, ends assumed
With: 150 mM KCl
Reference: input library
Direction: higher = stronger binding
All sequences stand within: GGGAGUUCUACAGUCCGACGAUC … UGGAAUUCUCGGGUGUCAAGG
Strand | log2 enrichment
UUGUCUUCUGAGAUGUUGGGCCCCUCUUGGGAUGGAGAUGAAGCAGAAUCCACUGGUGAAAUCAUUAGACUUGGAGACACAGCACACACC | -0.413
GCAGGAAGUAAAAACAAAUGGAGAUGCUUCGGAUAGUGGCAGGGGUGGGGGUUGCUAAGGAAAGGGUGGGAUGGGAGUGGGUAAAGAGUU | 2.47
AAGUCCUGUGCUACACAUCGUAUGUACCGAAUCGGGGAAAGGGGUUUGGGGAGGGGAAAGUAUUAUGUUACGCCGUUCGGAUCUGCACUU | 3.62
GCAGGAAGUAAAAACAAAUGGAAAUGCUUCGGAUAGUGGCAGGGGUGGGGGUUGUUAAGGAAAGGGUGGGAUGGGAGUGGGUAAAGAGUU | 1.67
GCAGGAAGUAAAAACAAAUGGAAAUGCUUCGGAUAGUGGCAGGAAAGGGGGUUGCUAAGGAAAGGGUGGGAUGGGAGUGGGUAAAGAGUU | 1.83
UCAAGUCCUGUGCUACACAUCGUAUGUACCGAAUCGGGCCCGGCCCGGCCCGGGAAAGUAUUAUGUUACGCCGUUCGGAUCUGCACUUCC | -1.54
GUCCUGUGCUACACAUCGUAUGUACCGAAUCGGGUUUUUGGGUUUUUGGGUUUUUGGGGAAAGUAUUAUGUUACGCCGUUCGGAUCUGCA | 0.586
UGGUUUUGGUGCCUGGCAUCGAAGAUGGUGUGUUCUUUCUGGAAACUGUAUAUCUUAUUGGACUUAUCCAGAUGAUGAGAAACGCAAGGU | -1.19
UGGACUUGCGGGUUCCCAUCUGGGACCAGGACAUACAGUUUCUCCCAGGAUCACAGAAGCUUGUCACCUGCACAGGGUACCACCAGGUAA | -0.791

Some of these lines once more (set 2):
Strand | E-score
AGTCGGCA | 0.148
CTTCTATA | -0.159
CACGGGGG | 0.26
ATAAAAAT | -0.189
GTGTAGTA | -0.204
